Experimental data pooled from the literature.
Every numbered part comes from another study and shows a few of its results, in no order.

Study 1
Target: Histone acetyltransferase KAT6A, winged helix 2, GST fusion (KAT6A, Homo sapiens, UniProt Q92794, residues 85-181)
Method: protein binding microarray
Form: double-stranded DNA, one strand shown
Matrix: in vitro
Concentration: not given
Notes: 8-mer, flanks averaged, mean of 2 arrays, mostly near background
Baseline: not given
Direction: higher = stronger binding
Construct (chain): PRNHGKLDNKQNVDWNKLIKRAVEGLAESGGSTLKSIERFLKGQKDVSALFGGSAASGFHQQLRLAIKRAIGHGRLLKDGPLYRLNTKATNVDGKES
Strand | E-score
CAAATTCG | 0.112
AGGAACAG | -0.0546
GGCGAGTA | -0.0812
ACGGCTCA | 0.0794

Study 2
Target: RNA binding protein fox-1 homolog 2, RRM domain, GST-SBP tag (RBFOX2, Homo sapiens, UniProt O43251-10, residues 100-194)
Method: RNA Bind-n-Seq
Form: RNA
Matrix: in vitro
Concentration: 365 nM
Notes: natural RNA segment, single round, ends assumed
Baseline: no-protein control
Direction: higher = stronger binding
Construct (chain): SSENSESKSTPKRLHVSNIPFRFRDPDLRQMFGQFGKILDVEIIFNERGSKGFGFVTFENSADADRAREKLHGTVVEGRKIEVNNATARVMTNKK
Strand | RBNS enrichment (R)
GGGAGUUCUACAGUCCGACGAUCUGGGGUCACUGUGCAAGCUUCCUUAUGGUUUGAACCUCUUGUCAUGUGAUAAAAGUCUCUGUCUCGAGGUUGCAGGCUUUUCAUUUUUAAUCAGUCUUGUCACAGGUGCGUGGAAUUCUCGGGUGCCAA | 1.35
GGGAGUUCUACAGUCCGACGAUCAAUAUCCUCAACAGACAAAAGAAGACAGGAAGCUUUUGGAGGCACGGGAAAAUUUUUGCUUGCUUGUGAAGCACCUGUCAGAGGACCCGCCUUCGAGCCUGCAGGAACUAUGGAAUUCUCGGGUGCCAA | 1.15
GGGAGUUCUACAGUCCGACGAUCGAACUGAAUAAACCAUUAACUGGCCAUCCUGGUUUUGCAGAGAUCAGGUUGUUGACAGUUCCUGGUUGACCCACAGCUACCCAUGUCAGUUAUCUCCACUAACAUAUCCAUGGAAUUCUCGGGUGCCAA | 0.233
GGGAGUUCUACAGUCCGACGAUCAUUUUAUAAGUUUUGUUACAUGAAAGGUUGAAAUAUUGAGUGGUUGAAAGUGAACUGCUGUUUGCCUGAUUGGUAAACCAACACACUACAAUUGAUAUCAAAAGGUUUCUUGGAAUUCUCGGGUGCCAA | 0.419

Study 3
Target: Fragile X messenger ribonucleoprotein 1, C-terminal low-complexity region (Fmr1, Mus musculus, UniProt P35922)
Method: RNA Bind-n-Seq
Form: RNA
Matrix: in vitro
Concentration: 200 nM
Notes: whole 134-nt RNA, ends assumed
Together with: 150 mM KCl
Baseline: input library
Direction: higher = stronger binding
Strand | log2 enrichment
GGGAGUUCUACAGUCCGACGAUCUGGCCCUGGUGGCAUGCGGGGAGGAAGAGGUGGCCUCAUGGAUCGUGGUGCUCCCGGUGGAAUGUUCAGAGGUGGCCGUGGUGGAGACAGUGGAAUUCUCGGGUGUCAAGG | 0.824
GGGAGUUCUACAGUCCGACGAUCUCCUGCCAACCUCUCUUAAUGCUCUGAGAGCCUCUGGUGUUGACAUAGAAGAGGAAACGGAGAAGAACCUGGAAAAGGUACAGACUAUCAUGGAAUUCUCGGGUGUCAAGG | -1.45
GGGAGUUCUACAGUCCGACGAUCGUCCUGUGCUACACAUCGUAUGUACCGAAUCGGGAAAAAAAGGGAAAAAAAGGGUGGGAAAGUAUUAUGUUACGCCGUUCGGAUCUGCACUGGAAUUCUCGGGUGUCAAGG | -0.0136
GGGAGUUCUACAGUCCGACGAUCUCAAGUCCUGUGCUACACAUCGUAUGUACCGAAUCGGGGCCGGGCCGGCCGGGGAAAGUAUUAUGUUACGCCGUUCGGAUCUGCACUUCCUGGAAUUCUCGGGUGUCAAGG | -0.00457

Other studies, line by line
Molecule | target | test | system | setting | how to read | quantity | value
PhoQ, residues 284 288 289 292 302 303 ASTSDA | PhoP, residues 12 14 15 18 19 AGCRL (Escherichia coli, UniProt P23836) | Sort-seq, item: YFP reporter | E. coli | PhoQ-PhoP variant library, together with: 10 µM Mg2+ | baseline: high Mg2+ state, higher = stronger signaling | fold induction | 1.92
